# Experimental data from different studies.
# ± gives the spread as reported.
# Technique: steady-state kinetics
# B1: SUOX P168A (Homo sapiens, UniProt P51687); chain ESTHIYTKEEVSSHTSPETGIWVTLGSEVFDVTEFVDLHPGGPSKLMLAAGGPLEPFWALYAVHNQSHVRELLAQYKIGELNPEDKVAATVETSDPYADDPVRHPALKVNSQRPFNAEPPPELLTENYITPNPIFFTRNHLPVPNLDPDTYRLHVVGAPGGQSLSLSLDDLHNFPRYEITVTLQCAGNRRSEMTQVKEVKGLEWRTGAISTARWAGARLCDVLAQAGHQLCETEAHVCFEGLDSDPTGTAYGASIPLARAMDPEAEVLLAYEMNGQPLPRDHGFPVRVVVPGVVGARHVKWLGRVSVQPEESYSHWQRRDYKGFSPSVDWETVDFDSAPSIQELPVQSAITEPRDGETVESGEVTIKGYAWSGGGRAVIRVDVSLDGGLTWQVAKLDGEEQRPRKAWAWRLWQLKAPVPAGQKELNIVCKAVDDGYNVQPDTVAPIWNLRGVLSNAWHRVHVYVSP
# B2: IYD (Homo sapiens, UniProt Q6PHW0); chain MGEPRTRAEARPWVDEDLKDSSDLHQAEEDADEWQESEENVEHIPFSHNHYPEKEMVKRSQEFYELLNKRRSVRFISNEQVPMEVIDNVIRTAGTAPSGAHTEPWTFVVVKDPDVKHKIRKIIEEEEEINYMKRMGHRWVTDLKKLRTNWIKEYLDTAPILILIFKQVHGFAANGKKKVHYYNEISVSIACGILLAALQNAGLVTVTTTPLNCGPRLRVLLGRPAHEKLLMLLPVGYPSKEATVPDLKRKPLDQIMVTV
# B3: enzyme (UniProt A0A2T5C445); chain MKSKQLNTDLFKVQAKQQIRLKNYDPASCNGFANRKEAEHQLKQDIKELADLQYQLYAENKRSVLIVFQAMDAAGKDGSIRHVFSGLNPQGCKVYSFKSPSANELDHDYLWRHYNKLPPRGEIGIFNRSHYENVLITRVHPEFLLNENLPDVHATNDITTEFWERRYRQIRDFEQTLTENGTTIIKFFLHLSKDEQKKRFMERIRKPAKNWKFSSADIRERQYWDDYQHAYEQAMRATSTEEAPWYIIPADNKWFTHVAIGNIIVETLQQMNIQMPEISSEEKDALKKAKKKLQNE
# B4: Nudt8 (Mus musculus, UniProt Q9CR24); chain MLPDGLSAEDEQRCRQLLARTTARLRSRPAAAAVLVPLCLVRGVPALLYTLRSSRLVGRHKGEVSFPGGKCDPDDQDVIHTALRETQEELGLEVPKEHVWGVLQPVYDREKATIVPVLANVGPLDLQSLRPNLEEVDEVFEMSLAHLLQTQNQGYTHFCQGGHFSYTLPVFLHGPHRVWGLTAVITELTLKLLAPGFYQPSLAVPELPRG
# B5: GTPBP3 E142K/R136E (Homo sapiens, UniProt Q969Y2); chain TRRSSGAPAPGSGATIFALSSGQGRCGIAVIRTSGPASGHALRILTAPRDLPLARHASLRLLSDPRSGEPLDRALVLWFPGPQSFTGEDCVEFHVHGGPAVVSGVLQALGSVPGLEPAEAGKFTRRAFANGKLNLTEVEGLADLIHAETEAQRRQALRQLDGELGHLCRGWAETLTKALAHVEAYIDFGEDDNLEEGVLEQADIEVRALQVALGAHLRDARRGQRLRSGVHVVVTGPPNAGKSSLVNLLSRKPVSIVSPEPGTTRDVLETPVDLAGFPVLLSDTAGLREGVGPVEQEGVRRARERLEQADLILAMLDASDLASPSSCNFLATVVASVGAQSPSDSSQRLLLVLNKSDLLSPEGPGPGPDLPPHLLLSCLTGEGLDGLLEALRKELAAVCGDPSTDPPLLTRARHQHHLQGCLDALGHYKQSKDLALAAEALRVARGHLTRLTGGGGTEEILDIIFQDFCVGK
# B6: enzyme E323G (UniProt H9KVH3); chain ADASQIVSEMGAGWNLGNQLEAAVNGTPNETAWGNPTVTPELIKKVKAAGFKSIRIPVSYLNNIGSAPNYTINAAWLNRIQQVVDYAYNEGLYVIINIHGDGYNSVQGGWLLVNGGNQTAIKEKYKKVWQQIATKFSNYNDRLIFESMNEVFDGNYGNPNSAYYTNLNAYNQIFVDTVRQTGGNNNARWLLVPGWNTNIDYTVGNYGFTLPTDNYRSSAIPSSQKRIMISAHYYSPWDFAGEENGNITQWGATSTNPAKKSTWGQEDYLESQFKSMYDKFVTQGYPVVIGGFGSIDKTSYDSSNNVYRAAYAKAVTAKAKKYKMVPVYWDNGHNGQHGFALFNRSNNTVTQQNIINAIMQGMQ
# B7: oxdC T165V (Bacillus subtilis, UniProt O34714); chain MKKQNDIPQPIRGDKGATVKIPRNIERDRQNPDMLVPPETDHGTVSNMKFSFSDTHNRLEKGGYAREVTVRELPISENLASVNMRLKPGAIRELHWHKEAEWAYMIYGSARVTIVDEKGRSFIDDVGEGDLWYFPSGLPHSIQALEEGAEFLLVFDDGSFSENSVFQLTDWLAHTPKEVIAANFGVTKEEISNLPGKEKYIFENQLPGSLKDDIVEGPNGEVPYPFTYRLLEQEPIESEGGKVYIADSTNFKVSKTIASALVTVEPGAMRELHWHPNTHEWQYYISGKARMTVFASDGHARTFNYQAGDVGYVPFAMGHYVENIGDEPLVFLEIFKDDHYADVSLNQWLAMLPETFVQAHLDLGKDFTDVLSKEKHPVVKKKCSK
# B8: cyc1 L72V (Streptomyces coelicolor, UniProt Q9K499); chain MHAFPHGTTATPTAIAVPPSLRLPVIEAAFPRQLHPYWPKLQETTRTWLLEKRLMPADKVEEYADGLCYTDVMAGYYLGAPDEVLQAIADYSAWFFVWDDRHDRDIVHGRAGAWRRLRGLLHTALDSPGDHLHHEDTLVAGFADSVRRLYAFLPATWNARFARHFHTVIEAYDREFHNRTRGIVPGVEEYLELRRLTFAHWIWTDLLEPSSGCELPDAVRKHPAYRRAALLSQEFAAWYNDLCSLPKEIAGDEVHNLGISLITHHSLTLEEAIGEVRRRVEECITEFLAVERDALRFADELADGTVRGKELSGAVRANVGNMRNWFSSVYWFHHESGRYMVDSWDDRSTPPYVNNEAAGEK
# B9: enzyme (Plasmodium falciparum, UniProt Q8I302); chain MLVKFRKCGQANIFRSISNVRKIYNVAKNNLKNNKDIERKEKIIILGSGWGGFNFLLNIDFKKYDVTLISPRNYFTFTPLLPCLCSGTLSVNVCTESIRNFLRKKNGYCGNYLQLECTDVFYEDKYINCIDIENNKVKLFYDYLIIAVGAKTNTFNINGVDKYAYFVKDIDDALKIRKKFLDILEKCTLPNISNEEKKKMLHVAVVGGGPTGVEVTAEFADFINKEVKINYKDIFNFISISIIEGGNNLLPTFTQNISDFTKENFHNLNINVLTNYYVIDVDKHSFHIQSSLNKNEKKKLSYGLLIWASGLAQTTLIQKFLKTIPVQANNAILKVDEKLRVIGIPSNNIYAIGDCKKIQPKLLHEHTNEIIKILTGNKLTSEALKLKQSELTKTFPQLSISKWDYEKNKKGEMTPQQFHDYLFEIDKNYKSPTPTAQNAKQEAYYLSNVFNNFIHTNQKFNIPSFIEKWKGSLAYIGNHQVVADLPYYELKGGRFSSTFWKVVYIQLLLSWKSRFHFFIDFIKTKWYGRPFIK
# B10: FabZ (Campylobacter jejuni, UniProt A1VXZ7); chain MIDVMQIQEILPHRYPFLLVDKITELKVKEVVLGYKNISISDHVFMGHFPGHPIYPGVLILEGMAQTGGVLAFESMEDKVDPKSKVVYFTGIDGAKFRNPVRPGDRLDYEMSVVKNRGNMWIFKGQAFVDGNLVAEAELKAMIVDK
# B11: enzyme D254A (Thermococcus kodakarensis, UniProt Q5JID5); chain MLYVEILGNLPEMARDEVKAMLELGGGEIIGQDYLFLKVDAGEKAFPFLDRLGLAHEYGLLLVEADSVEELLQKAGEVEWPIKGAFKVDTETMANCRHDVLDLPRKLGAVIHAQGFRVNLSKPDTVVRVYCGERLYAGIRLRYFDPKDFEKRKAHHRPFFRPISLHPRVSRALVNLTKATREILDPFMGAGGILIEAGLLGLRVYGVDIRPEMVEGAETNLKHYGVRDYTLKLGDATRLEDLFPDKKFEAVATAPPYGTAATLAGRKRDELYRKALRSIYNVLEDGGRLAIAFPTDFNGKAEAEAVGFRTLGRYYQRVHKSLERYFYVFEK
# B12: enzyme R447A (Sinorhizobium meliloti, UniProt Q92UV7); chain MTNAEVTIAVRHEPMRIAGRLVDTDDRVEVRYPWNDTVVGTVPAGRAEHAREAFAIAAAYQPKLTRYERQKILLATAEALAARKEEISDVITLELGISKADSLYEVGRAFDVFTLAGQMCIRDDGEIFSCDLTPHGKARKIFTMREPLTAISAITPFNHPLNMVAHKVAPAIATNNCVVVKPTELTPMTALLLADILYEAGLPPEMLSVVTGWPADIGMEMITNPHVDLVTFTGSVPVGKLIAANAHYKRQVLELGGNDPLIILNDLSDDDLARAADLAVAGATKNSGQRCTAVKRILCQESVADRFVPLVLERAKRLRFGDPMDRSTDLGTVIHEKAAALFEERVMRAAEEGADILYHPGRSGALLPPIVVDRVPHQSDLVLEETFGPIIPIVRVPDDDDATITLSNSTAFGLSSGVCTNDYRRMQKYIAGLKVGTVNIWEVPGYAIEMSPFGGIKDSGNGYKEGVIEAMKSFTNVKTFSLPWP
# B13: protein (Adiantum capillus-veneris, UniProt A0A4Y6I289); chain MTDAVENKQVEFGALEVEGIKFAPSVAALGSTKQLVLGGAGFRGLEISGNLVKFTAIGIYVDEAIIPHLSPKLHGKSIEELCNNELLFEEVLAAPFEKLVRVVFLLPLTGPQYSEKVVERMGLLPNPGIKEESTKQFLEIFKPENFPPRTSLICSFTEEALKVAFMKTDDFPEDADAVIEDKWLARAFLASIIGKDGVSPLAKLSFAERMSRCL
Molecule,substrate,setting,kcat [s⁻¹]
B1 (SUOX P168A),O=S(O)O,"pH 8, 25 °C, together with: oxidized cyt c 400 µM",50 ± 3
B2 (IYD),COc1cc(C[C@H](N)C(=O)O)cc(I)c1O,"pH 7.4, 25 °C, together with: sodium dithionite 0.5%",0.72 ± 0.12
B3 (enzyme),Nc1ncnc2c1ncn2[C@@H]1O[C@H](COP(=O)(O)O)[C@@H](O)[C@H]1O,"pH 8, 30 °C",98 ± 9.8
B4 (Nudt8),CCC(=O)SCCNC(=O)CCNC(=O)[C@H](O)C(C)(C)COP(=O)(O)OP(=O)(O)OC[C@H]1O[C@@H](n2cnc3c(N)ncnc32)[C@H](O)[C@@H]1OP(=O)(O)O,"pH 8.5, together with: 2 mM Mn2+",2.58 ± 0.233
B5 (GTPBP3 E142K/R136E),Nc1nc2c(ncn2[C@@H]2O[C@H](COP(=O)(O)OP(=O)(O)OP(=O)(O)O)[C@@H](O)[C@H]2O)c(=O)[nH]1,"pH 8, 37 °C, KCl 300 mM",0.00867 ± 0.0005
B6 (enzyme E323G),OC[C@H]1O[C@H](F)[C@H](O)[C@@H](O)[C@@H]1O[C@@H]1O[C@H](CO[C@H]2OC[C@@H](O)[C@H](O)[C@H]2O)[C@@H](O[C@@H]2O[C@H](CO[C@H]3OC[C@@H](O)[C@H](O)[C@H]3O)[C@@H](O[C@@H]3O[C@H](CO[C@H]4OC[C@@H](O)[C@H](O)[C@H]4O)[C@@H](O)[C@H](O)[C@H]3O)[C@H](O)[C@H]2O)[C@H](O)[C@H]1O,"pH 7.5, 30 °C, apparent",1.22 ± 0.233
DAD V1M (Burkholderia sp.),O=C(CO)c1ccc(O)cc1,"pH 6, 20 °C, together with: O2",2.42 ± 0.03
B7 (oxdC T165V),O=C(O)C(=O)O,"pH 4.2, 25 °C",3.8 ± 0.4
"AphC (Rhodococcus jostii, UniProt Q0S9X1)",Oc1ccc(-c2ccccc2)cc1O,"pH 8, 25 °C, apparent, together with: O2",0.344
"enzyme (Mus musculus, UniProt P08680)",CC(C)(COP(=O)(O)OP(=O)(O)OC[C@H]1O[C@@H](n2cnc3c(N)ncnc32)[C@H](O)[C@@H]1OP(=O)(O)O)[C@@H](O)C(=O)NCCC(=O)NCCSC(=O)CCC(=O)O,"pH 7.5, 37 °C",0.25 ± 0.004
B8 (cyc1 L72V),CC(C)=CCC/C(C)=C/CC/C(C)=C/CO[P@@](=O)(O)OP(=O)(O)O,"pH 6.5, 30 °C, together with: MgCl2 10 mM",0.044 ± 0.003
B9 (enzyme),CC1=CC(=O)c2ccccc2C1=O,"pH 8, 100 °C, not purified",0.0767 ± 0.00333
B10 (FabZ),C/C=C/C(=O)SCCNC(=O)CCNC(=O)[C@H](O)C(C)(C)COP(=O)(O)OP(=O)(O)OC[C@H]1O[C@@H](n2cnc3c(N)ncnc32)[C@H](O)[C@@H]1OP(=O)(O)O,"pH 7.5, room temperature, NaCl 500 mM, reverse hydration reaction",0.0515 ± 0.0047
"protein (Pseudoalteromonas luteoviolacea, UniProt A0A161XU12)",NCC(=O)O,"pH 7.5, 30 °C, positive cooperativity",6 ± 0.2
B11 (enzyme D254A),C[S+](CC[C@H](N)C(=O)O)C[C@H]1O[C@@H](n2cnc3c(N)ncnc32)[C@H](O)[C@@H]1O,"pH 7.5, 50 °C, apparent",0.00167 ± 0.000333
B12 (enzyme R447A),NC(=O)c1ccc[n+]([C@@H]2O[C@H](COP(=O)(O)OP(=O)(O)OC[C@H]3O[C@@H](n4cnc5c(N)ncnc54)[C@H](O)[C@@H]3O)[C@@H](O)[C@H]2O)c1,"pH 7.5, 30 °C, cofactor varied",0.076 ± 0.003
B13 (protein),O=C(/C=C/c1ccc(O)cc1)c1ccc(O)cc1O,,0.404 ± 0.0347

# A few entries again:
Molecule,substrate,setting,kcat [s⁻¹]
B9 (enzyme),CC1=CC(=O)c2ccccc2C1=O,"pH 8, 100 °C, not purified",0.0767 ± 0.00333
